Measurements collected from several papers.
Lines come from different studies, so protocols differ. Several values in a cell are separate wells, animals, samples, runs or records. ± gives the spread as reported.
Cell line: HeLa

Structure (SMILES)	effect on	method	time	notes	IC50
Nc1ncn([C@@H]2O[C@H](CO)[C@@H](O)[C@H]2O)c(=O)n1	cell growth or viability	–	–	–	4.91 µM
Cc1ccc(-c2ccc(C)cn2)nc1.[Co+2].[O-]c1c(I)cc(Cl)c2cccnc12.[O-]c1c(I)cc(Cl)c2cccnc12	cell growth or viability	MTT	48 h	–	8.47 µM
O=C1CS/C(=N\N=C\c2cccc3cc4ccccc4nc23)N1c1ccc([N+](=O)[O-])cc1	cell growth or viability	MTT	48 h	–	32 µM
NC(=O)c1nccn([C@@H]2O[C@H](CO)[C@@H](O)[C@H]2O)c1=O	cell growth or viability	–	–	–	> 10 µM
O=[C]=[Mn-2]12(=[C]=O)(=[C]=O)[O]c3cc4c(cc3=[N+]1CCc1ccccc1)[O][Mn-2](=[C]=O)(=[C]=O)(=[C]=O)([N+]=4CCc1ccccc1)[n+]1ccc(cc1)C(=O)OCCOC(=O)c1cc[n+]2cc1	cell growth	MTT	48 h	LED photolysed 1 h	17.3 ± 1.14 µM
COc1ccc(CNC[C@@](O)(COCc2ccc(OC)cc2)[C@@H]2CC[C@@H](C)C[C@H]2OCc2ccc(OC)cc2)cc1	cell growth or viability	MTT	72 h	–	3.52 µM
O=C1CS/C(=N\N=C\c2cccc3cc4ccccc4nc23)N1c1ccccc1	cell growth or viability	MTT	48 h	–	12.9 µM
CNS(=O)(=O)Nc1nccc(Cc2c(C)c3ccc(Oc4ncccc4F)cc3oc2=O)c1F	cell viability	–	7 days	–	> 1 µM
Cc1ccnc(-c2cc(C)ccn2)c1	cell growth or viability	MTT	48 h	–	> 50 µM
COC(=O)[C@@H]1CCCN1C(=O)[C@H](C)N(C)C(=O)OC(C)(C)C	cell growth or viability	SRB	–	–	62.4 µM and 86.3 µM and 31.9 µM
CC(=O)NCCOCCOCCOCCNC(=O)c1cc(C(=O)N2CCNCCNCCNCC2)c(O)c(C(=O)N2CCNCCNCCNCC2)c1	cell growth or viability	MTT	24 h	–	> 1000 µM
CCC(=CCc1c(O)cc2c(c1O)C(=O)CC(c1cc(O)ccc1OC)O2)CC (stereo not shown)	cell growth or viability	MTT	48 h	–	29.6 µM
Cc1c(COc2cc(OCc3cccc(C#N)c3)c(CNCCO)cc2Cl)cccc1-c1cccc(OCCCCCCC(=O)NO)c1	cell growth or viability	CCK-8	48 h	–	12.8 µM
COc1ccc(CNC[C@](O)(COCc2ccccc2)[C@@H]2CC[C@@H](C)C[C@H]2OCc2ccccc2)cc1	cell growth or viability	MTT	72 h	–	2.37 µM
NCCOc1cc(NC(=O)c2cc(OCc3cn(Cc4ccc(C(=O)O)cc4)nn3)cc(C(=O)Nc3cc(OCCN)c4ccccc4n3)n2)nc2ccccc12	cell growth or viability	ATP luminescence	72 h	–	> 40 µM
CC(C)OC(=O)[C@H](CO)NCc1cc(Cl)c(OCc2cccc(-c3ccccc3)c2Br)cc1OCc1cccnc1	cell growth or viability	MTT	–	–	> 10 µM
COc1ccnc(-c2cc(OC)ccn2)c1.Cc1ccc2c(Cl)cc(Cl)c([O-])c2n1.Cc1ccc2c(Cl)cc(Cl)c([O-])c2n1.[Co+2]	cell growth or viability	MTT	48 h	–	3.06 µM
CN(C)c1ccc(/C=C/c2cc(/C=C3\Sc4ccccc4N3CCCN3CCCC3)c3ccccc3[n+]2C)cc1	cell growth or viability	MTT	36 h	–	4.2 µM
OC[C@H]1O[C@@](CO)(O[C@H]2O[C@H](CO)[C@@H](O)[C@H](O)[C@H]2O)[C@@H](O)[C@@H]1O	cell growth or viability	–	–	–	> 10 µM

Excerpt of the above:
Structure (SMILES)	effect on	method	time	notes	IC50
OC[C@H]1O[C@@](CO)(O[C@H]2O[C@H](CO)[C@@H](O)[C@H](O)[C@H]2O)[C@@H](O)[C@@H]1O	cell growth or viability	–	–	–	> 10 µM
